Measured values of several laboratories.
Every numbered part comes from another study and shows a few of its results, in no order. Substitutions count along the parent as printed.

Series 1
Target: CCNB1, cyclin fold, Cln2 fusion (human)
Method: yeast growth competition, sequencing
Matrix: yeast
Notes: weak parent motif
Reference: not given
Reading: higher = stronger binding
Starting sequence: CDKN1B docking peptide (human); PSACRNLFGPVDH
Change	normalised enrichment score
PWACRNLFGPVDH [S2W]	0.153
PSAYRNLFGPVDH [C4Y]	0.618
PSACRNLAGPVDH [F8A]	-0.0833
PSACRNLFGPVNH [D12N]	0.997
PSAPRNLFGPVDH [C4P]	0.441
PSARRNLFGPVDH [C4R]	0.37
PSACRNLFGPVDN [H13N]	0.438
PSACRNLFGPVDK [H13K]	0.8
PSAWRNLFGPVDH [C4W]	0.921
PSACRNLFGPQDH [V11Q]	0.397
PSACKNLLGPVDH [R5K F8L]	0.181
PSWCRNLFGPVDH [A3W]	0.539
PSACRNLFGPVHH [D12H]	0.41
PSACRNLFGPVQH [D12Q]	0.574
PSACRNNFGPVDH [L7N]	0.24
PSECRNLFGPVDH [A3E]	0.57
PSTCRNLFGPVDH [A3T]	0.15
PSACRNQFGPVDH [L7Q]	0.18
PSAARNLFGPVDH [C4A]	0.864
PSACRNLFEPVDH [G9E]	0.59
PSACRNLFCPVDH [G9C]	0.42
PSACRNLFGPHDH [V11H]	1.36
PSACRNLFGPMDH [V11M]	0.382
PSFCRNLFGPVDH [A3F]	0.731
PSACRNLFWPVDH [G9W]	0.321

Series 2
Target: RNA binding protein fox-1 homolog 2, RRM domain, GST-SBP tag (RBFOX2, Homo sapiens, UniProt O43251-10, residues 100-194)
Method: RNA Bind-n-Seq
Form: RNA
Matrix: in vitro
Concentration: 365 nM
Notes: natural RNA segment, single round, ends assumed
Reference: no-protein control
Reading: higher = stronger binding
Residues (chain): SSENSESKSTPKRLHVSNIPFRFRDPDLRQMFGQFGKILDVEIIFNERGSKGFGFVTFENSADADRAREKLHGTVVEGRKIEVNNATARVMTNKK
Strand	RBNS enrichment (R)
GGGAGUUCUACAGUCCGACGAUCCCAGCCCACCCUACACCGUGCAAUACCCAGACCCAGCCUGGUCUUUCCCCAGGCCUUUGCCCGCUUCUCCCUGGUCACCCUUGUCCAGUGUGAGUUUUGUCACAUUCUGGUGGAAUUCUCGGGUGCCAA	1.06
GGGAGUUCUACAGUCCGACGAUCCAUACAAGGCCCAGGAGGCUUAGUCCAGUCUGUGCUCCUGGGCUACAAGGACCCAGCCUGAGAUGGUCCCAUCUGCAGGGCCCCGCACCAGUUGGAGCAGAUGCCUCCCCUGGAAUUCUCGGGUGCCAA	0.322
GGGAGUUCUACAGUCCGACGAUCCAAAUAAAACCAAAUCUUUUGUCAACAGGAUGAAACCCAUCUUAAAGGAAAGAAAAGGAAUUGGUGUGAAGAGAGAAGUUAGAGAAGGGAAAUGCAGUGAAUUACUAUCUUGGAAUUCUCGGGUGCCAA	0.628
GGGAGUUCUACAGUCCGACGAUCUUAGUAACCUCGCCUCUCUUCUUGAACCACACCGGUCUGCCGCUGCUCAGUGCCCCACCAGGCGUGGGCCUGGUCUCAGCGGCGGCUGCAGCCGUAGCAGCAUCCAUCUCUGGAAUUCUCGGGUGCCAA	0.233
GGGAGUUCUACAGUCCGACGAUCAGUGCCUGUUUGGUAAGUAGGUUAGCAUUCAUCAUGAACUCUGAAAGCCAUUUCAGAGUUUGGCUGCUGCUCUGACCCUGCUGUGGUACAAAAAACAUGGAUUUUUUUUUUGGAAUUCUCGGGUGCCAA	0.263
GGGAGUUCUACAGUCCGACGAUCUAAUCAGAUUAACUUCUUAAACUGCUUAAUUCUCAUCGCUUCUUAAAACUAGGGUGGUUUGCAGGUAUCCAAAAAUAUGCUAUGACAGAACAAAAUUGUGGUAUUCAUGAUGGAAUUCUCGGGUGCCAA	1.46
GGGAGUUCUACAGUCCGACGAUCGGUGAGGGAGGGAUCUAAGUAGAAAAAGAUGAGUUCUGAUCUUCUUUAUCUCUUCUAAACUGUGUUUAUAUUGCUCUGGGUCCAACAACACUAAAUCAUAGUUUAACACAUGGAAUUCUCGGGUGCCAA	0.364
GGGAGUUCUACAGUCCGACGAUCACUUUGACCCUCAGACUGGCAAAUACUACGAGUUGGUCUAGCUCCUUCAUCGUAACAGCAGCGUGAAGUCCACAAUGGGCACCGUGACUGGGUGUUGGGCAUGGGGGCCCUGGAAUUCUCGGGUGCCAA	0.545
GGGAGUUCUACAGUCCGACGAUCAUUAAGCCUGUUGAAGUCACUGAGUCAGCAUAAUAAAGACUGCACAGGAGAAUUACCCCUAUACCUGAGCCUCAACCUUCUGGGGGAAAGGGAACUAGAUAACAUACUUCUGGAAUUCUCGGGUGCCAA	0.526
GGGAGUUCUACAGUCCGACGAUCUUGAUAAUAAAUUAUACACUAUGAAACCGCCAUUGGGCUACUGUAGAUUUGUAUCCUUGAUGAAUCUGGGGUUUCCAUCAGACUGAACUUACACUGUAUAUUUUGCAAUAUGGAAUUCUCGGGUGCCAA	1.51
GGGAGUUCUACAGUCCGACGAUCCUUUUUCUGCAAUUUGUUUGCAUUUUUUAGAAGUGCAAACAGUAAGUAAAUAAAAGCCUUCGGUAAUAAUCAUGACAAUACAAGAGGCUGAGCUAGGCUACAGGGGAAAAUGGAAUUCUCGGGUGCCAA	0.609
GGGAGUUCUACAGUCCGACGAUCUGCGGGAUUGUCAGUGGCAUUUAGUUGAGAGUUGAGGGGCUUUGGCCUGAAAUAAACUGCAAGUAUUAAGACUGUUGUUGCAAUUUGUGUCUAACAAGCUGUAGCAGGGUUGGAAUUCUCGGGUGCCAA	0.498

Series 3
Target: Interferon regulatory factor 5, full length, phosphomimetic (IRF5, Homo sapiens, UniProt Q13568-2, residues 1-514, S451D/S453D/S456D/S462D)
Method: protein-binding microarray
Form: double-stranded DNA, one strand shown
Matrix: in vitro
Concentration: 940 nM top
Notes: 60-bp whole probe
Added: salmon DNA 0.4 mg/ml
Reference: random background probes
Reading: higher = stronger binding
Shared flanks, not repeated: GCCTAGCAC … GTCTTGATTCGCTTGACGCTGCTG
Strand	fitted relative affinity [z-score]
TTAGGTTTCGACAGTGGGTTAGTGCTA	7.9
GAGGATTTCAGTTTCGAGACGTGCTAG	4.51
TTAGGTTTCCTTATCTTTTAGTGCTAG	1.71
GACGGTATCGGTCTCGGGACGTGCTAG	8.06
GACGGACTGGGGAGTGGGGACGTGCTA	-0.103
TTAGGTATCGACACTCGGTTAGTGCTA	4.89
TTAGGTATCGGGTTTCGGATAGTGCTA	6.71
TTAGGTTTCCGTTCCGGTTAGTGCTAG	2.96
ATAGATTTCGGGTATCGATTAGTGCTA	3.88
TTAGGTTTCGGTCTGGGTTAGTGCTAG	15.3
GACGGACTGCTCATCCTGACGTGCTAG	-0.434
TGATCTTCCTTCATGGCCTGGTGCTAG	0.143
GACGGAGTGCTACTGCTGACGTGCTAG	-0.363
GGCGGACTGGGGTATCGGGACGTGCTA	0.186
GACGATCTCAGCTTCGAGACGTGCTAG	0.0882
GACGGTCGCGGTCTCGGGACGTGCTAG	0.473
TTACAACTGAGTTTCGATTAGTGCTAG	8.38
CAGCATGCCTGTCCCTGGGTGTGCTAG	-0.343

Series 4
Target: Histone acetyltransferase KAT6A, both winged helices, GST fusion (KAT6A, Homo sapiens, UniProt Q92794, residues 1-181)
Method: protein binding microarray
Form: double-stranded DNA, one strand shown
Matrix: in vitro
Concentration: not given
Notes: 8-mer, flanks averaged, mean of 2 arrays, mostly near background
Reference: not given
Reading: higher = stronger binding
Target sequence (chain): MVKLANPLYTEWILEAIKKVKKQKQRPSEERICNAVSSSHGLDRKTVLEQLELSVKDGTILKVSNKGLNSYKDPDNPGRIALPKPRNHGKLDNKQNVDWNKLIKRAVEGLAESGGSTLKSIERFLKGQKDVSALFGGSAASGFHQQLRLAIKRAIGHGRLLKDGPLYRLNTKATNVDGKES
Strand	E-score
GTGCATCA	-0.0577
CAATCAGC	-0.0638
GAGACACC	-0.149
GAAGGCGA	0.0948
AGGTCGAG	-0.164
TCAGACGA	-0.179
CATACCGG	0.21
CGGCGAGA	0.233
CATAGTCC	-0.0376
TCGCCAAA	-0.0242
AATAAACC	-0.163
CAGGAGAC	-0.0771
AAGATCCG	0.0823
AGGGACAG	-0.234
ACCAACTC	-0.22
CCGACCCG	0.245
GGTTTGTA	-0.0357

Series 5
Target: ABI1, truncated, D143A, DHFR fusion (Arabidopsis thaliana)
Method: DHFR PCA, deep sequencing
Matrix: yeast
Notes: methotrexate growth selection, single substitutions
Added: (+)-ABA 17 µM
Reference: wild-type fitted maximum
Reading: higher = stronger binding
Starting sequence: PYL1, truncated, DHFR fusion (Arabidopsis thaliana); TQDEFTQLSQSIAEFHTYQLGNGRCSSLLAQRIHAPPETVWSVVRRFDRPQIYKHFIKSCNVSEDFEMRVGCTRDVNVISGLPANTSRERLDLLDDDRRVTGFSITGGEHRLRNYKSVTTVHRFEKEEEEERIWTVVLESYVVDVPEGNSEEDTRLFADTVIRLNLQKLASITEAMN; partner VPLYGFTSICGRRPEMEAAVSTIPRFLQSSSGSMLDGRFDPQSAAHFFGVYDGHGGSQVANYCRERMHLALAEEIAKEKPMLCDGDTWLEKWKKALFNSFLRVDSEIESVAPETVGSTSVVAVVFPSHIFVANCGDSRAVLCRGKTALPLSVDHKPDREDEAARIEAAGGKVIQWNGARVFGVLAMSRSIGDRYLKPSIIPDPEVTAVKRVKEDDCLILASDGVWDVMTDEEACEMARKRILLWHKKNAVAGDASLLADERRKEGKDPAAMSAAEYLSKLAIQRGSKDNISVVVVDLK
Change	relative binding score [%]
R88W	52.1
E129H	86.9
K58D	57.6
R69N	75.3
P50T	-4.27
P146D	3.59
E109A	65.9
I133L	90.7
Q31Y	30.4
M176Q	86.4
A13D	80.9
V62E	-22.5
V145I	92.1
T154R	3.3
E139D	0.803
S11F	74.2
T135F	-4.63
T17S	77.1
F15S	20.6
R113Y	59.2
M68Y	60.9
E38T	57.7

Further values, each from its own experiment
Substance	target	assay	test system	setting	how to read	measurement	result
PhoQ, residues 284 288 289 292 302 303 HSSMNL	PhoP, residues 12 14 15 18 19 NIMAP (Escherichia coli, UniProt P23836)	Sort-seq, measured: YFP reporter	E. coli	PhoQ-PhoP variant library, added: 10 µM Mg2+	reference: high Mg2+ state, higher = stronger signaling	fold induction	0.77

Repeated from above (series 3):
Strand	fitted relative affinity [z-score]
GACGGTATCGGTCTCGGGACGTGCTAG	8.06
GACGGACTGGGGAGTGGGGACGTGCTA	-0.103
TTAGGTATCGACACTCGGTTAGTGCTA	4.89
TTAGGTATCGGGTTTCGGATAGTGCTA	6.71
TTAGGTTTCCGTTCCGGTTAGTGCTAG	2.96
